Assay results of several laboratories.
Each line is one published result; not all experiments were run side by side. No end group written: not given here.

| Substance | cell line | assay | test system | setting | scale | inhibition |
| --- | --- | --- | --- | --- | --- | --- |
| CCC(C)Oc1nc(N)nc(N)c1C#N (stereo not drawn) | HT-29 | cell growth or viability, SRB | – | 100 µM, 72 h | – | 30% |
| C/C(=N\N=c1/[nH]c(C)cs1)c1ccccn1 | MCF7 | cell growth or viability, SRB | – | 100 µg/mL, 48 h | – | 41.2% |
| CC(C)Oc1ccc(S(=O)(=O)c2ccc(Oc3cc(OCC(N)=O)c(C(=O)C(Cl)Cl)cc3[N+](=O)[O-])cc2)cc1 | NCI-H1299 | cell growth or viability, MTT | – | 2.5 µM | – | > 95% |
| CC(=O)C1S/C(=N/N=C(\C)c2ccccn2)NC1=O (stereo not drawn) | MCF7 | cell growth or viability, SRB | – | 100 µg/mL, 48 h | – | 66.2% |
| COc1ccccc1-c1cc(-c2ccc(-c3ccc(Br)cc3)cc2)nc(N)c1C#N | HT-29 | cell growth or viability | – | 50 µM | – | 75% |
| ANKHYF | washed human platelets | platelet aggregation | peptide, human | concentration not given, 1 min preincubation, together with: collagen 5 µg/mL | – | 0% |
| GIINTLQKYYCRVRGGRCAVLSCLPKEEQIGKCSTRGRKCCRRKK (human beta-defensin 3; not fully specified; ends and bridges not checked; sequence looked up) | LAD2 | degranulation, agonist | peptide | 100 nM, together with: Pseudomonas aeruginosa LPS 10 µg/mL, 5 min preincubation | – | ~50% |
| Cc1ccc(C(=O)Nc2ccc(OS(=O)(=O)c3ccc(I)cc3)cc2)cc1 | HeLa | cell growth or viability, MTT | – | 100 µM, 24 h | – | > 50% |
| CCN1C(=O)C(C)S/C1=N/N=C(\C)c1ccccn1 (stereo not drawn) | MCF7 | cell growth or viability, SRB | – | 100 µg/mL, 48 h | – | 64.7% |
| Cc1ccc(C(=O)Nc2ccc(OS(=O)(=O)c3ccc(-c4ccccc4)cc3)cc2)cc1 | HeLa | cell growth or viability, MTT | – | 100 µM, 24 h | – | 48.2% |
| N#Cc1c(-c2ccccc2Cl)cc(-c2ccccc2Br)[nH]c1=O | HT-29 | cell growth or viability | – | 50 µM | – | 81% |
| CCCc1ccc(S(=O)(=O)Oc2ccc(NC(=O)c3ccc(C)cc3)cc2)cc1 | HeLa | cell growth or viability, MTT | – | 100 µM, 24 h | – | 49.2% |
| COc1cc2ncnc(Nc3ccc(Cl)cc3F)c2cc1OC | A549 EGFR reporter cells | EGFR-induced granule formation | – | 10 µM, together with: 500 nM EGF | negative means activation | 97% |
| O=C(Nc1ccc(OS(=O)(=O)Cc2ccccc2)cc1)c1ccccc1 | HeLa | cell growth or viability, MTT | – | 100 µM, 24 h | – | > 50% |
| methyl-β-cyclodextrin | MDCK | nanoparticle endocytosis | – | 10 mM, 30 min pretreatment | – | 68.9% |

A few entries again:
| Substance | cell line | assay | test system | setting | scale | inhibition |
| --- | --- | --- | --- | --- | --- | --- |
| COc1ccccc1-c1cc(-c2ccc(-c3ccc(Br)cc3)cc2)nc(N)c1C#N | HT-29 | cell growth or viability | – | 50 µM | – | 75% |
| ANKHYF | washed human platelets | platelet aggregation | peptide, human | concentration not given, 1 min preincubation, together with: collagen 5 µg/mL | – | 0% |
